Assay results from different studies.
Parts stem from different laboratories: compare values within a part only.
UniProt P42681, sequence (whole entry, looked up): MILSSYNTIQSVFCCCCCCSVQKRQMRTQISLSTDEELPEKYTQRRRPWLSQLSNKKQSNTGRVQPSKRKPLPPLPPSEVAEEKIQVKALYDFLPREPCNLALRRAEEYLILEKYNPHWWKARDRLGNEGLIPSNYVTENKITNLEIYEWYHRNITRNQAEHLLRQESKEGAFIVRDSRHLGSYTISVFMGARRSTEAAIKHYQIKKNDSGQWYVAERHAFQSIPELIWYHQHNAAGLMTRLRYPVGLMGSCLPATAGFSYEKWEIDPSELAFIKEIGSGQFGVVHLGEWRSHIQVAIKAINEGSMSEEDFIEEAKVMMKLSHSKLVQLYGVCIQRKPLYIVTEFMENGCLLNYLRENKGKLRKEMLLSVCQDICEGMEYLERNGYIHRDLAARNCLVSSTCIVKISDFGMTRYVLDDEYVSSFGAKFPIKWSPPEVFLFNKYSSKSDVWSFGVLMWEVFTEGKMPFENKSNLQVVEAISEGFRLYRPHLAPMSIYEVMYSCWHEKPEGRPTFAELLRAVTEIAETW
UniProt P08172, sequence (whole entry, looked up): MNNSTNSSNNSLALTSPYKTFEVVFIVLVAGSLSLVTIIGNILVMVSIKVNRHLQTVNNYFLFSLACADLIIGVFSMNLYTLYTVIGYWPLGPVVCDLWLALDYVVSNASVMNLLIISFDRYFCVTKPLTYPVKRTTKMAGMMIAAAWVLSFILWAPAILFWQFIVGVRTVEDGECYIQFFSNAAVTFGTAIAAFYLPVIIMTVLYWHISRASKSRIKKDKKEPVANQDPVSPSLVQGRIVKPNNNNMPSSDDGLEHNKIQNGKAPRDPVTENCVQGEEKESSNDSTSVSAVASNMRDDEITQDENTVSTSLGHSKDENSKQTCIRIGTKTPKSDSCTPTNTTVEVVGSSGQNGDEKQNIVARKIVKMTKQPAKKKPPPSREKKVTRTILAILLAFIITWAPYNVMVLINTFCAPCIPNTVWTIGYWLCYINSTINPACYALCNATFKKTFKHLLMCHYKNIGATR
UniProt P08581, sequence (whole entry, looked up): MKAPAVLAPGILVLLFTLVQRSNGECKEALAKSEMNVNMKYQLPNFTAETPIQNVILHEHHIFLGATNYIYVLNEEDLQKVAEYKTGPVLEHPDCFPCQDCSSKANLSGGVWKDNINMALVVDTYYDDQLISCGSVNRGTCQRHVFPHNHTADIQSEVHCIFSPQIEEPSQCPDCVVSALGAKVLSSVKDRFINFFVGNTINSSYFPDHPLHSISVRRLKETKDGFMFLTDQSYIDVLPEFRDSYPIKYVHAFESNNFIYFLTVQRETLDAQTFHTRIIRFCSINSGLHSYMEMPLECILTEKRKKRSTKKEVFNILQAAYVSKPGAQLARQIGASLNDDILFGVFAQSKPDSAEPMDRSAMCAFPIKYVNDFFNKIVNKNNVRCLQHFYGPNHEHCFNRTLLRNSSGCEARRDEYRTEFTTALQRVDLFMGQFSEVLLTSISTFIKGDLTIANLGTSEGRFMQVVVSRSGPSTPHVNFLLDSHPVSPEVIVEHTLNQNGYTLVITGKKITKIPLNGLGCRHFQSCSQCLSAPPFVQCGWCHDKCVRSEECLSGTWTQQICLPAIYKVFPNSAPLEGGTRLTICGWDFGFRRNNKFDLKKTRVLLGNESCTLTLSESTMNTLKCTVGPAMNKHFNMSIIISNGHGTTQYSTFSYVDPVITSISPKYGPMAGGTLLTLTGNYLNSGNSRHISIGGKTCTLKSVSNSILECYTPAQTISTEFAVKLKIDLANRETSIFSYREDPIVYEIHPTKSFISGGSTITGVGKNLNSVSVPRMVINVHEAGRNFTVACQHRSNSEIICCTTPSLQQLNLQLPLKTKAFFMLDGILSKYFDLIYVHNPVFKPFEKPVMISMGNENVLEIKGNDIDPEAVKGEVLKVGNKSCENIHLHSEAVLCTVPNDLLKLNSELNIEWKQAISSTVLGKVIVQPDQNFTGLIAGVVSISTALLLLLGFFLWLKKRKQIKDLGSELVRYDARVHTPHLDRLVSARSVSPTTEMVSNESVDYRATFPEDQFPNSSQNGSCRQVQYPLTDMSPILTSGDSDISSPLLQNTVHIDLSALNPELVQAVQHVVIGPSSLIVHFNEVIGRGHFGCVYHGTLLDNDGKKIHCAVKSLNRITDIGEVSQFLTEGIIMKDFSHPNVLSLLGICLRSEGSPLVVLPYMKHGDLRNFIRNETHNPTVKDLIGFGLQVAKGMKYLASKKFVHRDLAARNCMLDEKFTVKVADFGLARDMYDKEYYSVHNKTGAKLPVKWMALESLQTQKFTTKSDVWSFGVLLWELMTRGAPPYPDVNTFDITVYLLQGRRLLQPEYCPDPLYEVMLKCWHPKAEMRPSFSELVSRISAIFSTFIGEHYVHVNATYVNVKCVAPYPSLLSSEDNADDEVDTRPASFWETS
UniProt P49761, sequence (whole entry, looked up): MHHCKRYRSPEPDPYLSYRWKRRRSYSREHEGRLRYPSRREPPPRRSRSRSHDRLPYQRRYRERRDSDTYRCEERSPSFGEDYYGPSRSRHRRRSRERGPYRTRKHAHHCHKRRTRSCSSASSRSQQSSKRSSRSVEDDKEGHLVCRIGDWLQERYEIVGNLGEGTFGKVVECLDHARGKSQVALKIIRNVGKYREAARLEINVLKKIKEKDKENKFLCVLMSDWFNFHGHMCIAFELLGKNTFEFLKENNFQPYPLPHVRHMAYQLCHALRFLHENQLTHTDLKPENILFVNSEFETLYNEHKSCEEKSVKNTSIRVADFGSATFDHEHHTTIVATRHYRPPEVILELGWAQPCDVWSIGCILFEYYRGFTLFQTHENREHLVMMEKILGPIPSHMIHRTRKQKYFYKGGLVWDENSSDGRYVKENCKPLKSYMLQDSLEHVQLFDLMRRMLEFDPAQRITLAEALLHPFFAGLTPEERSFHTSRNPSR
UniProt P32298, sequence (whole entry, looked up): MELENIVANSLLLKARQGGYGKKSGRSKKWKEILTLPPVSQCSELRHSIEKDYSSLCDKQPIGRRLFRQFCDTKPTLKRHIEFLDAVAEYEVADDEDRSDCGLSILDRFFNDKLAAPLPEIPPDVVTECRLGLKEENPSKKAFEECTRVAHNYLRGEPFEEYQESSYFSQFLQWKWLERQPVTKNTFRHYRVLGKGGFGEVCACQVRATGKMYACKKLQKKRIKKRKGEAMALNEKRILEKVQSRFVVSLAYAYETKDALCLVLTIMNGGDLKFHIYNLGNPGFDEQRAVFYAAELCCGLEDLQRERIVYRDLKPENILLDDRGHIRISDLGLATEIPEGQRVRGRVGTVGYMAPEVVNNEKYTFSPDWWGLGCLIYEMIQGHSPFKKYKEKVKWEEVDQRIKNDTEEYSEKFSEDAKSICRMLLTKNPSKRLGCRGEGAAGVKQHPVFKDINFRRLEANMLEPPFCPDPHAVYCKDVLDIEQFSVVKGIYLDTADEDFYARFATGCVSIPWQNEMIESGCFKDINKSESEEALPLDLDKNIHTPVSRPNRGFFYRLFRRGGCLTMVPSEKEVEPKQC
UniProt P08173, sequence (whole entry, looked up): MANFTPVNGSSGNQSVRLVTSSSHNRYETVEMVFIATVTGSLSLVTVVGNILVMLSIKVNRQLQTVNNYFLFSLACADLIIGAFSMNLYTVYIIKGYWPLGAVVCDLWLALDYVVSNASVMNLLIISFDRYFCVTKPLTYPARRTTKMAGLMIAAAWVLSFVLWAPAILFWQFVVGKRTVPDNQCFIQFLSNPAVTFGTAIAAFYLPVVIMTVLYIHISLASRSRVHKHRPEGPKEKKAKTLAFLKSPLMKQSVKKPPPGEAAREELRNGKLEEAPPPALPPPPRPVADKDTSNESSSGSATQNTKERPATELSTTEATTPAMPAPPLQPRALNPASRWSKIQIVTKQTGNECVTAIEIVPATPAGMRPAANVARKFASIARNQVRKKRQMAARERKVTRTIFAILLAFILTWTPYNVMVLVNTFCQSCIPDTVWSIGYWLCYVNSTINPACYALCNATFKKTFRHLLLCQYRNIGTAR
UniProt P18825, sequence (whole entry, looked up): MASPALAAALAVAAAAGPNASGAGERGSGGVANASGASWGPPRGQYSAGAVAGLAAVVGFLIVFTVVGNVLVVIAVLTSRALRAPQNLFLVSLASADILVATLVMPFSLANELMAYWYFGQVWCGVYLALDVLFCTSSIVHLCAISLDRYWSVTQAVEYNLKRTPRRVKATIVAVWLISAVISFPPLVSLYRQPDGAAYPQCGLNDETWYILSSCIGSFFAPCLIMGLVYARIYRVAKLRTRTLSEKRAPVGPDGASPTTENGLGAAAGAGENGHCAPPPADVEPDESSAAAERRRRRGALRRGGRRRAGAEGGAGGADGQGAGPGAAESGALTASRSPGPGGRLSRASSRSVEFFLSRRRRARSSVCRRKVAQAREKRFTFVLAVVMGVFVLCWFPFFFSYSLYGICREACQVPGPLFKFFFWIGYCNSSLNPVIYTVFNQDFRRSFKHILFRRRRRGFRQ
UniProt P25100, sequence (whole entry, looked up): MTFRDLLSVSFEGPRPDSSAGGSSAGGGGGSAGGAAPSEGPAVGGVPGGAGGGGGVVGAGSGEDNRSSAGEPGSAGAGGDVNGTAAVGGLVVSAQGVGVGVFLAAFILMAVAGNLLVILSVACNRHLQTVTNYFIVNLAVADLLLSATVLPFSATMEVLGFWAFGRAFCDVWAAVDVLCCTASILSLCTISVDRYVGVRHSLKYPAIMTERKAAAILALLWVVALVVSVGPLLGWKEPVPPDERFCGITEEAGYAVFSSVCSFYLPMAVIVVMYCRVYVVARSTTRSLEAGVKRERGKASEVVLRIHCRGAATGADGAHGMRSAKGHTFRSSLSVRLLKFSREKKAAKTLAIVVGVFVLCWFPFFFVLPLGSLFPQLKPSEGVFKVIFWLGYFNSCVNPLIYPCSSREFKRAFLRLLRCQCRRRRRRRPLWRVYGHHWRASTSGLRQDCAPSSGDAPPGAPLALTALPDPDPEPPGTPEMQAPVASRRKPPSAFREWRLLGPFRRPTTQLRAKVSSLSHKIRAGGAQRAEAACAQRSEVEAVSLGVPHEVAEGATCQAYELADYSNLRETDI

Sample 1
Species: mouse
Matrix: microsomes or S9
Tested at: 2 µM
Time: 0.5 h
SMILES	remaining compound [%]
CCc1nn(C)c(Cl)c1CN1CCc2cc(F)c(F)cc21	93.3
CCN(CC)CCCNc1oc(-c2ccco2)nc1S(=O)(=O)c1ccc2c(c1)OCCO2	31.6
CC(C)[C@@H](NS(=O)(=O)c1ccc(F)cc1)C(=O)O	86.9
Cn1c2ccccc2n2c(=O)n(Cc3cscn3)nc12	67
Oc1ccc(C23CCCC2C2(CCCC2)c2ccc(O)cc2O3)c(O)c1 (stereo not shown)	8.86
CCc1cccc(CC)c1NC(=O)CN(c1cccc(Cl)c1Cl)S(C)(=O)=O	1.68
Cc1cc(C(O)CN2CCN(c3ccc(F)cc3F)CC2)c(C)s1 (stereo not shown)	83.8
CCN(CC)C(=O)[C@@H]1C[C@@H](NC(=O)Cn2ccc3ccccc32)CN1C	15.4
Cc1cc(C)c(S(=O)(=O)NCCc2cc3c(C)ccc(C)c3[nH]c2=O)c(C)c1	74.9

Sample 2
SMILES: Cc1ccc(S(=O)(=O)/C=C/C#N)cc1
Observed: enzyme activity
Action: inhibitor
Tested at: 0.5 µM
Baseline: control
target	remaining activity [%]
Cyclin-dependent kinase 1, with cyclin A (CDK1, Homo sapiens, UniProt P06493)	96.7
Vascular endothelial growth factor receptor 2 (KDR, Homo sapiens, UniProt P35968)	94.7
Serine/threonine-protein kinase PLK3 (PLK3, Homo sapiens, UniProt Q9H4B4)	97.1
Cyclin-dependent kinase 9, with cyclin K (CDK9, Homo sapiens, UniProt P50750)	112
Misshapen-like kinase 1 (MINK1, Homo sapiens, UniProt Q8N4C8)	111
Rho-associated protein kinase 1 (ROCK1, Homo sapiens, UniProt Q13464)	93.2
Serine/threonine-protein kinase PAK 3 (PAK3, Homo sapiens, UniProt O75914)	105
Hepatocyte growth factor receptor (MET, Homo sapiens, UniProt P08581)	94.7
Tyrosine-protein kinase TXK (TXK, Homo sapiens, UniProt P42681)	103
G protein-coupled receptor kinase 4 (GRK4, Homo sapiens, UniProt P32298)	96.8
Calcium/calmodulin-dependent protein kinase type IV (CAMK4, Homo sapiens, UniProt Q16566)	96.4
Dual specificity protein kinase CLK3 (CLK3, Homo sapiens, UniProt P49761)	106
MAP/microtubule affinity-regulating kinase 4 (MARK4, Homo sapiens, UniProt Q96L34)	99

Sample 3
Organism: Sarcocystis neurona
Observed: parasite activity
Tested at: 10 µM
Time: 96 h
Compound	activity class
C=CC[C@@H]1/C=C(\C)C[C@H](C)C[C@H](OC)[C@H]2O[C@@](O)(C(=O)C(=O)N3CCCC[C@H]3C(=O)O[C@H](/C(C)=C/[C@@H]3CC[C@@H](O)[C@H](OC)C3)[C@H](C)[C@@H](O)CC1=O)[C@H](C)C[C@@H]2OC	inactive
CC(C)(C(=O)c1cccnc1)c1cccnc1	inactive
CCOc1cc(N)c(Cl)cc1C(=O)NCC1CN(Cc2ccc(F)cc2)CCO1 (stereo not shown)	inactive
CC(C)Oc1ccc2c(=O)c(-c3ccccc3)coc2c1	inactive
CC(N)C12CC3CC(CC(C3)C1)C2 (stereo not shown)	inactive
Nc1nnc(-c2cccc(Cl)c2Cl)c(N)n1	inactive
O=C(O)C[C@H](O)C[C@H](O)/C=C/c1c(C2CC2)nc2ccccc2c1-c1ccc(F)cc1	inactive
CC12CC3CC(C)(C1)CC(N)(C3)C2	inactive
COc1cc(C(=O)NS(=O)(=O)c2ccccc2C)ccc1Cc1cn(C)c2ccc(NC(=O)OC3CCCC3)cc12	inactive

Sample 4
SMILES: N#Cc1ccc(Nc2ccc3[nH]c(=O)[nH]c3c2)c(Cl)c1
Observed: cell-free assay
Tested at: 10 µM
target	inhibition [%]
Muscarinic acetylcholine receptor M5 (CHRM5, Homo sapiens, UniProt P08912)	12.6
Beta-2 adrenergic receptor (ADRB2, Homo sapiens, UniProt P07550)	-0.51
Muscarinic acetylcholine receptor M4 (CHRM4, Homo sapiens, UniProt P08173)	11.6
Muscarinic acetylcholine receptor M2 (CHRM2, Homo sapiens, UniProt P08172)	3.51
Beta-3 adrenergic receptor (ADRB3, Homo sapiens, UniProt P13945)	-10.2
Alpha-2C adrenergic receptor (ADRA2C, Homo sapiens, UniProt P18825)	4.16
5-hydroxytryptamine receptor 7 (HTR7, Homo sapiens, UniProt P34969)	8.12
Alpha-1D adrenergic receptor (ADRA1D, Homo sapiens, UniProt P25100)	-5.71
Alpha-1B adrenergic receptor (ADRA1B, Homo sapiens, UniProt P35368)	10

For quick reference, copied from above (sample 2):
target	remaining activity [%]
Serine/threonine-protein kinase PLK3 (PLK3, Homo sapiens, UniProt Q9H4B4)	97.1
Cyclin-dependent kinase 9, with cyclin K (CDK9, Homo sapiens, UniProt P50750)	112
Misshapen-like kinase 1 (MINK1, Homo sapiens, UniProt Q8N4C8)	111
Rho-associated protein kinase 1 (ROCK1, Homo sapiens, UniProt Q13464)	93.2
Serine/threonine-protein kinase PAK 3 (PAK3, Homo sapiens, UniProt O75914)	105
